# Experimental data of several laboratories.
# A part holds a random share of what one study measured. “And” joins repeats or separate records; there may be more than shown.

# Study 1
# SMILES: COc1cc(C(=O)N2CCC(N3CCN(C)CC3)CC2)ccc1Nc1ncc2c(n1)N(C)c1ccccc1C(=O)N2C
target,assay,system,conditions,inhibition
PKD2 human,KiNativ profiling,human PBMC,"1 µM, LYS1 site, added: ADP acyl phosphate probe",5.2%
PIK3C2B human,KiNativ profiling,human PBMC lysate,"concentration not given, ATP probe, ATP site",7.9%
p70S6K/p70S6Kb (mouse),"probe labelling, inhibitor, KiNativ ActivX ATP probe",mouse brain lysate,1 µM,6.1%
"HGK (MAP4K4, human)","probe labelling, KiNativ, measured: Lys1 site peptide",PBMC lysate (human),"1 µM, added: ADP acyl-phosphate probe",-7.5% and 0.6%
EGFR (mouse),"probe labelling, KiNativ, measured: IPVAIkELR peptide, LYS1 site",brain tissue lysate (mouse),"0.1 µM, added: ADP acyl-phosphate probe",-11.3%
MARK3 and MARK4 (mouse),"probe labelling, KiNativ, measured: EVAIkIIDK peptide, LYS1 site",brain tissue lysate (mouse),"0.1 µM, added: ATP acyl-phosphate probe",1.2%

# Study 2 — technique: CellTiter-Glo; tested at: 1 µM; setting: mean of five organoid lines; reference: DMSO
# Cell line: normal adjacent epithelium patient-derived organoids
Structure (SMILES),viability [%]
CCC(=O)N[C@H]1CC[C@@H](C(=O)N(C)c2ccc(-c3nc4ccccc4o3)cc2)C1,55.8
CN1CCN(c2cnc3c(C4CCN(C(=O)c5ccc(OC(F)(F)F)cc5N)CC4)ncnc3c2)CC1,99.5
CNC(=O)c1ccccc1Nc1cc(Nc2ccc(N3CCOCC3)cc2OC)ncc1C(F)(F)F,27.4
Nc1nc(NCc2ccccc2)nc(-c2ccccc2CO)n1,118
CN1CCN(C(=O)C(C)(C)c2ccc(C(=O)Nc3cn4cc(-c5cc(C(C)(C)C)cc(C(C)(C)C)c5)ccc4n3)cc2)CC1,102
Cn1nc(C(F)(F)F)cc1-c1cnc(N2CCc3cc(S(=O)(=O)Nc4c(F)cc(Cl)cc4F)cc(N4CCCC4=O)c32)nc1,108
O=C(NNS(=O)(=O)c1ccccc1)c1cc(-c2ccnnc2)ccc1F,119
CN(c1ccnc(CNc2nc(Nc3ccc4c(c3)CC(=O)N4)ncc2C(F)(F)F)n1)S(C)(=O)=O,108
C[C@H](c1ccc(F)cc1)N(Cc1cccc(C(=O)O)c1)C(=O)c1cnc2ccccc2c1,104
CC(C)(O)c1cncc(-c2nc3ccc(F)cc3n2C2CC2)c1,105
C[C@H](c1ccnc(Nc2nc3ccc(-c4cc(N(C)C)ncn4)cc3[nH]2)c1)N1CCN(C(=O)CC(F)(F)F)CC1,96.1
O=C1CCc2cc(Nc3cc(OC4CCOCC4)c([N+](=O)[O-])cc3Cl)ccc2N1,111
Cc1noc([C@H]2C[C@@H](c3ccc(C(F)(F)F)cc3)CN(C(=O)N3CCS(=O)(=O)C3)C2)n1,102
CO[C@H]1CC[C@H](CNc2ccc(S(=O)(=O)NC(=O)c3ccc(N4CCN(CC5=C(c6ccc(Cl)cc6)CC(C)(C)CC5)CC4)cc3Oc3cnc4[nH]ccc4c3)cc2[N+](=O)[O-])CC1,94.2
CC1=C(C#N)C(c2ccc3c(c2)c(NC(=O)c2ccccc2C)nn3C)C(C#N)=C(C)N1,97
Cn1cnc2c(F)c(Nc3ccc(Br)cc3Cl)c(C(=O)NOCCO)cc21,72.1
C[C@@H](NC(=O)Nc1cc2[nH]ncc2c(CO)n1)c1ccccc1,84.6
Cc1nc(C2CCN(C(=O)c3ccc(OC(F)(F)F)cc3N)CC2)c2ncc(N3CCN(C)CC3)cc2n1,110
C[C@@H](c1cccc(C#N)c1)n1cc(Cl)cc(C(N)=O)c1=N,110
COc1cc(-c2cn(C3CCc4c(F)cccc4N(CC(F)(F)F)C3=O)nn2)ccc1-n1cnc(C)c1 (stereo not shown),112

# Study 3 — cell line: mouse MPNST tumor cells; technique: high-content nuclear imaging; measured: cell number; tested at: 10 µM; time: 12 h; setting: mean of 2 replicates; reference: plate mean; direction: higher = more cells
SMILES,nuclei count
CCCCNC(=O)NS(=O)(=O)c1ccc(C)cc1,-0.0287 z-score
CN1CCN(c2ccc(-c3cccc(CN4CCOCC4)c3)cc2NC(=O)c2c[nH]c(=O)cc2C(F)(F)F)CC1,0.491 z-score and 0.764 z-score
Nc1c(Br)cc(Br)cc1CN[C@H]1CC[C@H](O)CC1,3.71 z-score and -0.0632 z-score
CSc1ccc(C(=O)NC2CCCCC2NC(=O)CNC(=O)c2cc(C(F)(F)F)ccc2NC(=O)NC(C)C)cc1 (stereo not shown),-0.141 z-score
CC1CNCCN1S(=O)(=O)c1cccc2cnccc12 (stereo not shown),2.18 z-score
CN1C(=O)N(c2cc(Cl)cc(Cl)c2)C(=O)[C@@]1(C)Cc1ccc(Br)cc1,-0.5 z-score
CN(C)CCOC(=O)COc1ccc(Cl)cc1,1.64 z-score
O=CN1CCC(C(=O)NCCN2CCC(=C3c4ccccc4C=Cc4ccccc43)CC2)CC1,6.79 z-score

# Study 4 — organism: Sarcocystis neurona; read-out: parasite growth; tested at: 10 µM; time: 96 h; setting: first screen
Structure (SMILES),inhibition
CO/N=C(\C(=O)N[C@@H]1C(=O)N2C(C(=O)O)=C(COC(C)=O)CS[C@H]12)c1csc(N)n1,-19.5%
CCCNC(=O)NS(=O)(=O)c1ccc(Cl)cc1,-7%
COC(=O)C1=C(C)NC(C)=C(C(=O)OCC(C)C)C1c1ccccc1[N+](=O)[O-] (stereo not shown),15.3%
CCOC(=O)O[C@]1(C(=O)OCCl)CC[C@H]2[C@@H]3CCC4=CC(=O)C=C[C@]4(C)[C@H]3[C@@H](O)C[C@@]21C,5%
CN1CCN(C2=Nc3cc(F)ccc3Cc3ccccc32)CC1,10.4%
CN1[C@@H]2CC[C@H]1C[C@@H](OC(=O)c1c[nH]c3ccccc13)C2,16.5%
CNC(=C[N+](=O)[O-])NCCSCc1ccc(CN(C)C)o1,-23.8%
Fc1ccc([C@@H]2CCNC[C@H]2COc2ccc3c(c2)OCO3)cc1,12.6%
CC(C)(C#N)c1cc(Cn2cncn2)cc(C(C)(C)C#N)c1,8.1%
